Results from different studies.
Parts stem from different laboratories: compare values within a part only. Values joined by “and” are separate records of one study, mostly repeats; a detail may differ.

Set 1
Cell line: HCC1569
Technique: in-cell western
Refers to: CDK1 phospho-Thr14
Concentration: 3333.33 nM
SMILES | pCDK1 (Thr14) level
Cc1ncc(-c2cc3c(Cl)c(-c4c(C)ccc(O)c4C)cnc3[nH]2)cn1 | 66.4 RLU and 65.1 RLU
Cc1ccc(O)c(C)c1-c1cnc2[nH]c(-c3cnc(N)nc3)cc2c1C#N | 71.8% and 75.2%
Cc1ncc(-c2cc3c(C(N)=O)c(-c4c(C)ccc(O)c4C)cnc3[nH]2)cn1 | 29.5 RLU and 33.5 RLU
Cc1ccc(O)c(C)c1-c1cnc2[nH]c(-c3cnc(N4CCC(CCN5CCN(c6ccc(N7CCC(=O)NC7=O)cc6F)CC5)CC4)nc3)cc2c1C#N | 102 RLU
Cc1ncc(-c2cc3c(C(F)(F)F)c(-c4c(C)ccc(O)c4C)cnc3[nH]2)cn1 | 66.9 RLU and 63.6 RLU
Cc1ccc(O)c(C)c1-c1cnc2[nH]c(-c3cnc(N4CCC(CCN5CCN(c6ccc(NC7CCC(=O)NC7=O)cc6F)CC5)CC4)nc3)cc2c1C#N (stereo not drawn) | 145 RLU and 154 RLU
Cc1ccc(O)c(C)c1-c1cnc2[nH]c(-c3cnc(N4CCC5(CC4)CC(CN4CCN(c6ccc(NC7CCC(=O)NC7=O)cc6F)CC4)C5)nc3)cc2c1C#N (stereo not drawn) | 149 RLU and 136 RLU
Cc1ccc(O)c(C)c1-c1cnc2[nH]c(-c3cnc(N4CCC(CN5CCN(c6ccc7c(c6)CN(C6CCC(=O)NC6=O)C7=O)CC5)CC4)nc3)cc2c1C#N (stereo not drawn) | 103 RLU

Set 2
SMILES: Cc1ncsc1-c1ccc(C(CO)NC(=O)C2CC(O)CN2C(=O)C(C(C)C)n2cc(-c3ccc(COc4c(-c5c(C)c(F)cc6[nH]ncc56)c(C5CC5)cc5c(N6CC7CC6CN7)nc(OC6CCOCC6)nc45)cc3)nn2)cc1 (stereo not drawn)
cell line | read-out | action | technique | refers to | setting | IC50
AsPC-1 | – | – | In-Cell ELISA | phospho-ERK1/2 | – | 14.7 nM and 15.9 nM and 10.7 nM
PK-59 | cell growth or viability | – | ATP luminescence | – | – | 16.9 nM
LCLC-97TM1 | cell growth or viability | – | ATP luminescence | – | – | 1160 nM
GP5d | cell growth or viability | – | ATP luminescence | – | – | 28.8 nM
SK-CO-1 | cell growth or viability | – | ATP luminescence | – | – | 161 nM
T24 | cell growth or viability | – | ATP luminescence | – | – | > 10000 nM
AsPC-1 KRAS G12D | ERK1/2 phosphorylation | inhibitor | In-Cell ELISA | – | overall of experiments | 13.6 nM
PSN1 | cell growth or viability | – | ATP luminescence | – | – | 7640 nM

Single results of other studies
SMILES | tested on | test | test system | conditions | scale | measurement | value
Cc1nc(C)c(C=[N+]([O-])C(C)(C)C)nc1C | – | stereological counting | MPTP mouse model, substantia nigra | 30 mg/kg | – | TH-positive neuron count | 7810 and 6790 and 8650 and 9020 and 7720
COCC1CC2C(CCC3(C)C(O)CCC23)c2ccc(O)cc21 (stereo not drawn) | A549 | DNA microarray, refers to: CCL22 | – | concentration not given | reference: untreated A549 cells | expression ratio | 1

A few entries again (set 2):
cell line | read-out | action | technique | refers to | setting | IC50
AsPC-1 KRAS G12D | ERK1/2 phosphorylation | inhibitor | In-Cell ELISA | – | overall of experiments | 13.6 nM
